Measurements gathered from unrelated publications.
Numbered parts are unrelated; each lists some results of a single study. Positions count from the first letter of the parent shown.

Study 1 — target: CCNE2, cyclin fold, Cln2 fusion (human); method: yeast growth competition, sequencing; sample: yeast; setting: weak parent motif; relative to: not given; reading: higher = stronger binding; quantity: normalised enrichment score
Starting sequence: SAMHD1 docking peptide (human); ASKSRVQLFKDDP; partner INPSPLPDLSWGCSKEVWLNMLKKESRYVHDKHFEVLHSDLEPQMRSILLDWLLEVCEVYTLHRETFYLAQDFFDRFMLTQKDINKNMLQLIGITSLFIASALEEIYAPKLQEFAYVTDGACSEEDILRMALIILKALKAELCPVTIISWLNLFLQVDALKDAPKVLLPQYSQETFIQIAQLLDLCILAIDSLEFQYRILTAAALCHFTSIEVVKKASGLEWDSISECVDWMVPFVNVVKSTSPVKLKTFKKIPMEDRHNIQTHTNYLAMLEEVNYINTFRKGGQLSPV
ASKSWVQLFKDDP [R5W]: 0.626
AWKSRVQLFKDDP [S2W]: 0.319
ASGSRVQLFKDDP [K3G]: -0.118
ASKYRVQLFKDDP [S4Y]: 0.327
ARKSRVQLFKDDP [S2R]: -0.149
ASKARVQLFKDDP [S4A]: 0.752
ASKSRVQLFTDDP [K10T]: 0.106
ASKKRVQLFKDDP [S4K]: 0.0126
ASKSRVQLDKDDP [F9D]: 0.225
ASNSRVQLFKDDP [K3N]: -0.225
APKSRVQLFKDDP [S2P]: 0.121
ASKSRVQLFFDDP [K10F]: -0.415
ASKSCVQLFKDDP [R5C]: 0.2
ATKSRVQLFKDDP [S2T]: -0.14
ASKSRFQLFKDDP [V6F]: 0.296
ASKSRTQLFKDDP [V6T]: 0.0613
ASKSRVQWFKDDP [L8W]: 0.408
ASKSRVQLCKDDP [F9C]: 0.128
ASKSRVQLFKDGP [D12G]: 0.0868
ASKSPVQLFKDDP [R5P]: -0.505
ASKSRVQLFKSDP [D11S]: 0.778
ASDSRVQLFKDDP [K3D]: -0.297
AFKSRVQLFKDDP [S2F]: 0.228
AKKSRVQLFKDDP [S2K]: -0.402
ASKSRVQLIKDDP [F9I]: 0.304

Study 2 — method: RNA Bind-n-Seq; form: RNA; sample: in vitro; concentration: 365 nM; relative to: no-protein control; reading: higher = stronger binding; quantity: RBNS enrichment (R)
Target: RNA binding protein fox-1 homolog 2, RRM domain, GST-SBP tag (RBFOX2, Homo sapiens, UniProt O43251-10, residues 100-194)
Setting: natural RNA segment, single round, ends assumed
Shared flanks, not repeated: GGGAGUUCUACAGUCCGACGAUC … UGGAAUUCUCGGGUGCCAA
Construct (chain): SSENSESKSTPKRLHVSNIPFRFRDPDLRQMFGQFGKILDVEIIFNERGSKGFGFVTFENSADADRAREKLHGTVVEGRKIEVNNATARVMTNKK
CACCUGCAUUGCCUCACCAGUGUAUUUAUUUGUUAUUAAAUUGAUCUGACUUCUCAGCCUCAUUUGGACUAAAAAAAGAAAGCAGAAAUCCAUGAACACAUUGCUUCUCG: 0.772
UUUAAGUGUAUACUUUAGCAGGUGUGUACUAAUUACCAGUAACUUCAACACAAGCAAAGCAGGUUACAUGGUAAUGUUCAUUCAGUAUAUUUCUUGUUUGUGAAAUUGAA: 0.526
CACCGCUGUGUCGCCAGUGUGCUCACUAACAAGCCCCGCCACCUAACCCAGUGUGUUUUUACUAAGUCUCAGCCCUUUCCCCCACCCCUUUUUCUUCUCUCUUCCUUUUA: 0.713
CUGGUACCUUCCCCCAGCUUUCCAUCUGAGGACCAGAAAAGUUGUGUCUCCCUUAGAUGAGAUCUAGACGCCCCCAAAUCCUUGAGAUGUGGGUAUAGCUCAGGGUAAGC: 0.334
UUGACUUGCAAACCAGCCUUUUCUAAUAGGCUAAUAUUGCUGAGGCCUUAAAGGAAAUGGACAAAAAUUAUCCAGAAGGGGUACUUUUCCAUUGUAUCUUUCUAAUAAGG: 0.383
UAAAAAAAUGGAAUUUAAAGGAAGGCUUGUGUCACCUUUUGACUAUAAAUAAAUCCUUUCUACUGGACUUUGCAGUAGUCCUUUCUGGGUGAGCUCUGGGCCGGGCAUGG: 0.907
CUCUCUGUAAUUCUGCCCCACUCAUUUGUUUACCCUGGGUUUUAUACAGUUCUCUUCCUUCUCCCCUCCCACCUUUCCCUGGCUUUUUGCCUCCAUUCCAUGAGGCAUAC: 1.09
CACAGCCCUCAAGAGGCCCCUUUGGAUAGUGGCCCUGCACGAGACUGUGCCUUGAUCAUUUCGGUGACUGAAGAGUCUGACCCCAGAGGCCUUGGGGACCCUUUCUUCUC: 0.241

Study 3 — target: MAFF, bZIP domain (human); method: DHFR protein complementation; sample: yeast; relative to: wild-type JUN-FOS pair; reading: higher = stronger binding; quantity: binding fitness
Setting: single substitutions, most at no-binding floor
Starting sequence: JUN, bZIP domain (human); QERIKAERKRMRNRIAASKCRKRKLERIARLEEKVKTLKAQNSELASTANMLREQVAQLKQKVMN; partner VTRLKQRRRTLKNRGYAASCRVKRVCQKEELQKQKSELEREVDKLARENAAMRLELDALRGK
Q55F: -1.57 natural log
V35H: -1.52 natural log
L31Q: -1.54 natural log
V35Q: -1.41 natural log
E54W: -1.35 natural log
R30M: -1.38 natural log
R53S: -1.54 natural log
A49L: -1.19 natural log
E44A: -1.5 natural log
S43N: -1.46 natural log
T37E: -1.23 natural log
A29Q: -1.56 natural log
M51S: -1.25 natural log
K36T: -1.47 natural log
K39T: -1.53 natural log

Study 4 — method: aptamer microarray, sandwich; form: DNA with 2'F-ANA; sample: in vitro; concentration: 200 nM; with: Cy3 exosite-II aptamer, 400 nM; reading: higher = stronger binding; quantity: mean fluorescence intensity; sequence: GGTTGGTGTGGTTGG
Target: Prothrombin, mature alpha-thrombin (F2, Homo sapiens, UniProt P00734)
Setting: whole 15-mer aptamer, many near background
2'F-ANA at 1 2 6 7 9 12 13 14: 58.7 a.u.
2'F-ANA at 1 2 4 5 6 10 13 14: 74.6 a.u.
2'F-ANA at 1 2 3 4 5 9 12 13 14 15: 44.7 a.u.
2'F-ANA at 2 5 9 10 13: 44.1 a.u.
2'F-ANA at 2 3 4 6 10 12 14 15: 167 a.u.
2'F-ANA at 1 3 5 8 9 10 12 14 15: 46.6 a.u.
2'F-ANA at 1 4 6 7 8 11 12 13 15: 172 a.u.
2'F-ANA at 2 3 5 6 9 15: 88.8 a.u.
2'F-ANA at 1 2 3 6 7 8 10 14: 56 a.u.
2'F-ANA at 1 5 7 8 14 15: 61.9 a.u.
2'F-ANA at 2 5 6 7 8 9 12 15: 157 a.u.
2'F-ANA at 5 6 7 10 14 15: 44 a.u.
2'F-ANA at 1 3 6 7 11 12 13 14 15: 100 a.u.
2'F-ANA at 1 2 7 8 13 14: 99.6 a.u.
2'F-ANA at 2 6 8 9 12 13 15: 485 a.u.
2'F-ANA at 1 3 4 5 7 9 10 11 12 14: 46.3 a.u.
2'F-ANA at 1 3 5 6 8 9 10 11 12 13 14: 51.3 a.u.
2'F-ANA at 1 3 4 6 7 9 10 11 15: 77.1 a.u.
2'F-ANA at 3 5 6 13 14 15: 50.1 a.u.

For quick reference, copied from above (study 1):
ASKSRVQLFTDDP [K10T]: 0.106
ASKKRVQLFKDDP [S4K]: 0.0126
ASKSRVQLDKDDP [F9D]: 0.225
ASNSRVQLFKDDP [K3N]: -0.225
APKSRVQLFKDDP [S2P]: 0.121
ASKSRVQLFFDDP [K10F]: -0.415
ASKSCVQLFKDDP [R5C]: 0.2
ATKSRVQLFKDDP [S2T]: -0.14
